Assay results of several laboratories.
Each line is one published result; not all experiments were run side by side. ± marks the error that the study gave. ≈ marks a conversion by molar mass, not a printed value.

`COc1ccc(S(=O)(=O)NCc2c[nH]nc2-c2cccs2)cc1` has a parasitemia of 0.8 ± 0.1% (Plasmodium vivax; reinvasion; 1, human, human red blood cells; 1× EC50, 20 h).
`c1ccc(-c2nc(-c3ccc4ccccc4c3)c[nH]2)cc1`: “lowest concentration reducing egg number” ≥ 5 µM (Schistosoma mansoni; egg laying; worm couples).
Under “MIC geometric mean”, `CC(C)C[C@@H]1NC(=O)[C@H](CCCCN)NC(=O)[C@@H]2CCCN2C(=O)[C@@H](Cc2ccc(O)cc2)NC(=O)[C@H](CCCCN)NC(=O)[C@H](C(C)C)NC(=O)[C@H](CC(C)C)NC(=O)[C@H](CCCCN)NC(=O)[C@H](C(C)C)NC(=O)[C@@H]2CCCN2C(=O)[C@@H](Cc2ccc(O)cc2)NC(=O)[C@H](CC(C)C)NC(=O)[C@H](CCCCN)NC(=O)[C@H](C(C)C)NC(=O)[C@H](CCCCN)NC1=O` is recorded as 3 µg/mL (≈ 1.67 µM) (Gram-positive bacteria; 24 h, 7 strains).
For `CC[C@H](C)[C@H](NC(=O)[C@H](CCCCN)NC(=O)[C@H](CC(N)=O)NC(=O)[C@H](Cc1c[nH]c2ccccc12)NC(=O)[C@H](Cc1ccccc1)NC(=O)[C@H](CCCCN)NC(=O)[C@H](CCCNC(=N)N)NC(=O)[C@H](CC(C)C)NC(=O)[C@H](Cc1c[nH]c2ccccc12)NC(=O)[C@H](CCCCN)NC(=O)[C@H](CCCNC(=N)N)NC(=O)[C@H](CC(C)C)NC(=O)CNC(C)=O)C(=O)N[C@@H](CCCCN)C(=O)N[C@@H](CCCNC(=N)N)C(N)=O`, “geometric mean MIC” read 3.13 µM (Gram-positive bacteria).
`CCCCSc1ccc(SCCCC)c(O)c(=O)c1O` has an MIC80 of 2.3 µM (≈ 0.723 µg/mL) (Cryptococcus neoformans; microbial growth, broth dilution; 13 h).
For `CC(=O)N[C@H](CCCNC(=N)N)C(=O)N[C@H](CCCNC(=N)N)C(=O)N[C@H](CCCNC(=N)N)C(=O)N[C@H](CCCNC(=N)N)C(=O)N[C@H](CCCNC(=N)N)C(=O)N[C@H](CCCNC(=N)N)C(=O)N[C@H](CCCNC(=N)N)C(=O)N[C@H](CCCNC(=N)N)C(=O)N[C@H](CCCNC(=N)N)C(N)=O`, inhibition read “no effect” (HIV-1; cell-cell fusion, luciferase; 89.6 Env dual-tropic; concentration not given).
For `CC(C)C[C@H](NC(=O)OCc1ccccc1)C(=O)N[C@@H](C[C@@H]1CCNC1=O)C(O)S(=O)(=O)[O-].[Na+]` (some centres unmarked), “infected cells reduction” read > 50% (Coxsackievirus A10; immunofluorescence; RD; 1.1 µM, 8 h).
`COC(=O)c1c(C)cc(O)c(=O)c(O)c1O`: antiviral activity “inactive” (herpes simplex virus 1; viral replication; 200 nM).

Some of these lines once more:
`COC(=O)c1c(C)cc(O)c(=O)c(O)c1O`: antiviral activity “inactive” (herpes simplex virus 1; viral replication; 200 nM).
